# Experimental data from different studies.
# Sequences of proteins named here, by UniProt entry; tags and fusion partners are left off.
# UniProt P54760, whole entry, looked up: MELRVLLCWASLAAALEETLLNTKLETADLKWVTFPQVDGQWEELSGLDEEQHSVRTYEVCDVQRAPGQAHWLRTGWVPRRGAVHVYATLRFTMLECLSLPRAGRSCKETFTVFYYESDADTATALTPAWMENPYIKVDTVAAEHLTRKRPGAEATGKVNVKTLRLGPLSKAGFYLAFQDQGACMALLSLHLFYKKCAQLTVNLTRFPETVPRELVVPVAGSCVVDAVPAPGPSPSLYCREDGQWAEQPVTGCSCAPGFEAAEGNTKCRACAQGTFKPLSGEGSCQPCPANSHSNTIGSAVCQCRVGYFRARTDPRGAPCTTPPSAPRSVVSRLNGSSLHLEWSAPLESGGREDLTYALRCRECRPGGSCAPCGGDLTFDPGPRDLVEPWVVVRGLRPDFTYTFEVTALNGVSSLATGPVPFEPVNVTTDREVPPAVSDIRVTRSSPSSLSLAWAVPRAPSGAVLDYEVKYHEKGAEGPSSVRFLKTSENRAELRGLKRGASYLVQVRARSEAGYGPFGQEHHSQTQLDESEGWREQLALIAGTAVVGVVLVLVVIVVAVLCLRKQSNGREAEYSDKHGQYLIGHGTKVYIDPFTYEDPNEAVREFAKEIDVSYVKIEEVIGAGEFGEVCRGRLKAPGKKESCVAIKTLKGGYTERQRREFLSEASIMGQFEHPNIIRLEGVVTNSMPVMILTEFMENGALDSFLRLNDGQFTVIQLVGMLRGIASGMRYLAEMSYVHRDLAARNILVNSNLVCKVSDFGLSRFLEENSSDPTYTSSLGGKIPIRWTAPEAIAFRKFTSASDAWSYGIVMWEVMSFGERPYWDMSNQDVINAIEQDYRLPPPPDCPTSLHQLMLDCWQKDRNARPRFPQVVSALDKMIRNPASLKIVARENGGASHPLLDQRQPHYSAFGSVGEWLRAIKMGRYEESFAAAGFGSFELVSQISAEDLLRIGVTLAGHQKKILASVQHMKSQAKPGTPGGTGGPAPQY
# UniProt Q9UM73, whole entry F1174L, looked up: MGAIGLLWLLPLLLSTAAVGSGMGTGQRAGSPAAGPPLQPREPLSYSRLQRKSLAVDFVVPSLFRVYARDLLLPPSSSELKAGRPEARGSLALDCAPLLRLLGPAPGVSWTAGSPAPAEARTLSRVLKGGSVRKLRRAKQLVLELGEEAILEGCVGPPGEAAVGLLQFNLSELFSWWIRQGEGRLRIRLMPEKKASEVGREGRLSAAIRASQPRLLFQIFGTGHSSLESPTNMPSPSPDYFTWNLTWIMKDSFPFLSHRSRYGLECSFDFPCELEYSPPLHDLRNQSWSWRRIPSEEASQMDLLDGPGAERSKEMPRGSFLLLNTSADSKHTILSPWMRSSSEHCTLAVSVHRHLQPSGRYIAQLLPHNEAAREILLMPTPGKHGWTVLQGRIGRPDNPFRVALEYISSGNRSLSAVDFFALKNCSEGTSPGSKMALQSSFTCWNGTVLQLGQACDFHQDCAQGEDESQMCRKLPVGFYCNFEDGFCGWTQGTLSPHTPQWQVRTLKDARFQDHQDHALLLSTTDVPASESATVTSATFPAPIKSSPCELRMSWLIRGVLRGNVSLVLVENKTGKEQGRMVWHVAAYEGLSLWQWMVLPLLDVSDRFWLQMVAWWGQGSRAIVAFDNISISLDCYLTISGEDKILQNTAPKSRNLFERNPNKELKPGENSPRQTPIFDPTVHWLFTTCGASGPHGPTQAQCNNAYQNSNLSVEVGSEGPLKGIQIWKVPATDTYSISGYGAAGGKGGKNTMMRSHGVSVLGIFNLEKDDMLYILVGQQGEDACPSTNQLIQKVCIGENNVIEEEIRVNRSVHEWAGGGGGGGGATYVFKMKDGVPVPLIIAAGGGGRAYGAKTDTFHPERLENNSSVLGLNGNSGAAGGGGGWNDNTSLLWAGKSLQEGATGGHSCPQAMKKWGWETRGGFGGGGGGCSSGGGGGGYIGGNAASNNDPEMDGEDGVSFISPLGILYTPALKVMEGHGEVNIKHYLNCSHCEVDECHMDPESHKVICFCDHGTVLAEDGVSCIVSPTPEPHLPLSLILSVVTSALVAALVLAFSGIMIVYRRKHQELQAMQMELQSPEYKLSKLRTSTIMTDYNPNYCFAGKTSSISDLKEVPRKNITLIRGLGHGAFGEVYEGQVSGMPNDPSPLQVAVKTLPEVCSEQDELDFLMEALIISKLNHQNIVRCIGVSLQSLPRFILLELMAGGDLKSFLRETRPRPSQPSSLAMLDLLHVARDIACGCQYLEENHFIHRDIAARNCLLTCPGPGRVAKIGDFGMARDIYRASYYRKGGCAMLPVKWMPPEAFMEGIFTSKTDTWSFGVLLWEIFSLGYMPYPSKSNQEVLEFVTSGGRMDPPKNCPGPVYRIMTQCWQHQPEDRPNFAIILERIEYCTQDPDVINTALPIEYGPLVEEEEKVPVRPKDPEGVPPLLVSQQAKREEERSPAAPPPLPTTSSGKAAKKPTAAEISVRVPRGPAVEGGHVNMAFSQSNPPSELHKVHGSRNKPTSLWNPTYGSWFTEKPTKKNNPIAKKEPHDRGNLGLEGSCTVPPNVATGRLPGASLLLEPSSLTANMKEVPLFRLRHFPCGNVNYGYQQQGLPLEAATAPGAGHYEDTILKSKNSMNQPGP
# Compare with care: the assays were run in different laboratories. Numbers after ± are the reported error.
SMILES,tested on,test,test system,conditions,how to read,endpoint,result
CC#C/C(=N\OC[C@H]1COCCN1)c1ccc2ncnc(Nc3ccc(OCc4cccc(F)c4)c(Cl)c3)c2c1,"EPHB4 (Homo sapiens, UniProt P54760)",kinase activity,,10 µM,,inhibition,10.9%
CO[C@H]1/C=C/O[C@@]2(C)Oc3c(C)c(O)c4c(O)c(c(/C=N/N5CCN(C)CC5)c(O)c4c3C2=O)NC(=O)/C(C)=C\C=C\[C@H](C)[C@H](O)[C@@H](C)[C@@H](O)[C@@H](C)[C@H](OC(C)=O)[C@@H]1C,Mycobacterium bovis,,"BCG Tac^r7.2, thyA mutant",TA-C-resistant thyA mutant,,MIC50,0.0016 µM
CCC(C)C1NC(=O)/C(=C(/C)O)C1=O (stereo not drawn),Arabidopsis thaliana,"apo-pHusion imaging, item: apoplastic pH",elongating root cells,10 µM,,time to pH increase,2 to 4 min
O=[N+]([O-])c1cn2c(n1)OC[C@@H](OCc1ccc(OC(F)(F)F)cc1)C2,Mycobacterium bovis,,"BCG Tac^r10.1, thyA H147Y missense",TA-C-resistant thyA mutant,,MIC50,0.2 µM
Cc1cc2c(c(=S)[nH]1)C(=O)O/C2=C\c1c[nH]c2ccc(F)cc12,Influenza B virus,"viral replication, CPE, MTT","MDCK, B/Lee/40",72 h,,EC50,21.1 ± 9.73 µM
CCN1CCN(Cc2ccc(NC(=O)c3ccc(C)c(/C=C/c4cnc5[nH]ccc5c4OC)c3)cc2C(F)(F)F)CC1,"ALK (Homo sapiens, UniProt Q9UM73, F1174L)","inhibitor, cell-based kinome screen",,5 µM,baseline: no inhibitor,log2 fold change,0.217
COCCOc1ccc2nc3ccc(=O)c(Cl)c-3oc2c1,Mycobacterium tuberculosis,,mc2 6206 PA-824-resistant ddn mutant,7 days,,MIC90,9.7 µM
O=[N+]([O-])c1ccc(N2CCN(c3ccc([N+](=O)[O-])cc3[N+](=O)[O-])CC2)c([N+](=O)[O-])c1,Pseudomonas aeruginosa,,multidrug-resistant clinical isolate,,,MIC,> 500 µg/mL
O=c1ccc2nc3ccc(OCC(O)C(F)(F)F)cc3oc-2c1 (stereo not drawn),Mycobacterium tuberculosis,,mc2 6206 clofazimine-resistant fbiC mutant,7 days,,MIC90,12 µM
CC1(C)CCC(Cc2cc(O)c(-c3ccccc3)c(=O)[nH]2)CC1,Mycobacterium tuberculosis,,H37Rv,concentration not given,,resistance mutation frequency,1e-08 per cell
CC(C)COc1ccc2nc3ccc(=O)cc-3oc2c1,Mycobacterium tuberculosis,,mc2 6206 bedaquiline-resistant MmpL5 regulator mutant,7 days,,MIC90,9.9 µM
Nc1ccc(C(=O)O)c(O)c1,Mycobacterium bovis,,"BCG Tac^r7.2, thyA W133S missense",TA-C-resistant thyA mutant,,MIC50,> 100 µM

# A few entries again:
SMILES,tested on,test,test system,conditions,how to read,endpoint,result
CC1(C)CCC(Cc2cc(O)c(-c3ccccc3)c(=O)[nH]2)CC1,Mycobacterium tuberculosis,,H37Rv,concentration not given,,resistance mutation frequency,1e-08 per cell
CC(C)COc1ccc2nc3ccc(=O)cc-3oc2c1,Mycobacterium tuberculosis,,mc2 6206 bedaquiline-resistant MmpL5 regulator mutant,7 days,,MIC90,9.9 µM
